Measurements from different studies.
Numbered parts are unrelated; each lists some results of a single study.

Set 1
Target: PABPC1L2, full length, GST fusion (mouse, UniProt A0ABA7IW68)
Method: RNAcompete
Form: RNA
Matrix: in vitro
Tested at: 20 nM
Setting: 7-mer, probes averaged, single round
Reference: mean of 7-mers
Direction: higher = stronger binding
Construct (chain): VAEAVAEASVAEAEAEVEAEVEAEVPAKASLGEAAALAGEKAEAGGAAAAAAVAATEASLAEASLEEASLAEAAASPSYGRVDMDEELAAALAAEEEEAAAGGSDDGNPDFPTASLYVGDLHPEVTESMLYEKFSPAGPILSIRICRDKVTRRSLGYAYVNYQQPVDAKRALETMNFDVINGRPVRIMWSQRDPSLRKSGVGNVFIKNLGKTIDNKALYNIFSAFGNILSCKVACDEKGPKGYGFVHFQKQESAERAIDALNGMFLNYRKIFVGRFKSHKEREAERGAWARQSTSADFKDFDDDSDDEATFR
Sequence | 7-mer Z-score
UAAAUGU | 0.195
UGCGUAA | -0.112
CCAACAG | -0.112
CCGCGCC | -0.362
UAUUUGG | -0.293
GAGAAUG | 0.0315
GUUCCAA | -0.117
GCUGCCU | -0.26

Set 2
Substance: PhoQ, residues 284 288 289 292 302 303 SNGLAW
Method: Sort-seq
Measured: YFP reporter
Matrix: E. coli
Setting: PhoQ-PhoP variant library
With: 10 µM Mg2+
Reference: high Mg2+ state
Direction: higher = stronger signaling
target | fold induction
PhoP, residues 12 14 15 18 19 LHTVL (Escherichia coli, UniProt P23836) | 10.4
PhoP, residues 12 14 15 18 19 NQCAL (Escherichia coli, UniProt P23836) | 12.2
PhoP, residues 12 14 15 18 19 TQAML (Escherichia coli, UniProt P23836) | 11.9

Set 3
Target: RNA binding protein fox-1 homolog 2, RRM domain, GST-SBP tag (RBFOX2, Homo sapiens, UniProt O43251-10, residues 100-194)
Method: RNA Bind-n-Seq
Form: RNA
Matrix: in vitro
Tested at: 365 nM
Setting: natural RNA segment, single round, ends assumed
Reference: no-protein control
Direction: higher = stronger binding
Residues (chain): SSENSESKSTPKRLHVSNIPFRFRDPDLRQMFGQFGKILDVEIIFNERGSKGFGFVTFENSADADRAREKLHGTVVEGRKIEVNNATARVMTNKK
Sequence | RBNS enrichment (R)
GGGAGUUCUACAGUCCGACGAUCGGUCCAGGGCUGAUCAAAGAACUCUGACUGCAGAACUGCCGCUCUCAGUGGACAGGGCAUCUGUUACCCUGAGACCUGUGGCAGACACGUCUUGUUUUCAUUUGAUUUUUUGGAAUUCUCGGGUGCCAA | 0.444
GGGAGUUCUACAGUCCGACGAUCCAAAAUCAUGAAAUAGAAUCAUUUCUAUAAAUUGCUUCUUUAAGUUUUCUCUAAAUUUUGCCUCUAGGAAAAAAUUAAAACUAUUCAAUGACAGCUAGCUGUCACUGGUGUGGAAUUCUCGGGUGCCAA | 0.389
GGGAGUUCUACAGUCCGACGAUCACUUAUACUUAUUCUAUAAGGCCAAAGCCUUAUCUAGAAAGAUCAUGAAGAGUUUGGAUAUUUUUAAAACUAUACUCGAAUUUUCAUUUUUUCCUGUCCUGUAAAGAGAGUGGAAUUCUCGGGUGCCAA | 0.403
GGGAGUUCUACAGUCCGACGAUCCAAUAUUCCUAAGUAGCAAUGGGGUUGGCUCAAGUCUUUAUUAACAAAGAACAUUCUCUUUCAUCUAUAAAGAAAUUCUUAAAGAUGCAUUGACAGUGUUGAAUUACCAAUGGAAUUCUCGGGUGCCAA | 0.396
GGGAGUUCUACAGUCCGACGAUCUCUACUGACCUGAAUGUGUUGGAUCUACACGUGUUGUUUUGUUUUUGCUUUAUUGAUGCACGGAUGCUUUUGAACAGUAGAGCGAAAUGCUAGACAUGGAGAAUCUGCUCUGGAAUUCUCGGGUGCCAA | 13.7
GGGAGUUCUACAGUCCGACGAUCAUUGACGAUGGCAUUGAGCGUAGCUAGCUUAUUUCCAUCACUACGUGUUUUUGAGCUUGCUCUUACGUUUUAAGAGGUGCCAGGGGUACAUUUUUGCACUGAAAUCUAAAUGGAAUUCUCGGGUGCCAA | 0.49
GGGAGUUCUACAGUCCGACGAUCUUCUACUGGAAUAGAAAUGAGUUUUAUCAUCUUUGAAAAAUAAUUCACUCUUGAAGUAAUAAACGUUAAAAAAAUGGGAUGCCUGCCUCUGUGACAGCCUUGUUUGCUGAUGGAAUUCUCGGGUGCCAA | 0.283

Set 4
Target: Interferon regulatory factor 5, full length, phosphomimetic (IRF5, Homo sapiens, UniProt Q13568-2, residues 1-514, K96S/S451D/S453D/S456D/S462D)
Method: protein-binding microarray
Form: double-stranded DNA, one strand shown
Matrix: in vitro
Tested at: 250 nM
Setting: 60-bp whole probe
With: salmon DNA 0.4 mg/ml
Reference: random background probes
Direction: higher = stronger binding
Constant ends, left off below: GCCTAGCAC … GTCTTGATTCGCTTGACGCTGCTG
Sequence | log fluorescence [z-score]
TTAGGACTGCTTCTCCTTTGGTGCTAG | -0.446
TCACTTTGGCCTCTAGGACTGTGCTAG | -0.207
TTAGGTATCGGACTGGGTTTGTGCTAG | 1.5
TCATCTAAAAAGTCTCTGACTGTGCTA | 0.551
GACGGTCTCCTTATCCCGACGTGCTAG | -0.0474
TTAGAGTTCAGTTTCGATTAGTGCTAG | 9.77
GCTCTCTTCTGCTTCCTCAGGTGCTAG | 0.279
TTAGATTTCGGGTTTCCATTAGTGCTA | 5.39
GACAGTTTCGACTATCGGGACGTGCTA | 9.28
TCAAAGATCATTCTCACACTGTGCTAG | 0.211
AGAGATTTCAGGAATTGAAAAGTGCTA | 0.746
CTTGCTTTGTGCCTAGCCTTGTGCTAG | -0.52
